Measured values pooled from the literature.
Parts stem from different laboratories: compare values within a part only. Changes are numbered by the printed parent chain.

Study 1
Target: Prothrombin, mature alpha-thrombin (F2, Homo sapiens, UniProt P00734)
Technique: aptamer microarray, sandwich
Molecule type: DNA with 2'F-ANA
Sample: in vitro
Concentration: 200 nM
Setting: whole 15-mer aptamer, many near background
Added: Cy3 exosite-II aptamer, 400 nM
Reading: higher = stronger binding
Strand: GGTTGGTGTGGTTGG
Modification	mean fluorescence intensity [a.u.]
2'F-ANA at 1 7 9 10 12 14 15	53.6
2'F-ANA at 2 4 6 7 8 11 13 14	87.8
2'F-ANA at 1 3 4 8	264
2'F-ANA at 2 3 5 7 10 11 13	49.5
2'F-ANA at 1 5 8 9 10 12 13 14 15	48.7
2'F-ANA at 1 4 11 15	107
2'F-ANA at 2 3 4 5 6 8 9 11 12 13 14 15	54.8
2'F-ANA at 2 3 5 7 9 12 13 15	133
2'F-ANA at 2 3 4 5 7 8 11 12 13	115
2'F-ANA at 1 3 4 5 6 7 9 10 11 14 15	50.8
2'F-ANA at 1 4 5 7 8 10 12 15	58.8
2'F-ANA at 1 3 4 6 8 10 11 13	50.7
2'F-ANA at 2 3 5 8 9 11 12 13	150
2'F-ANA at 2 6 7 10 12 13 14 15	86.9
2'F-ANA at 2 3 4 6 8 9 15	522
2'F-ANA at 2 4 5 8 9 10 12	54.4
2'F-ANA at 1 2 4 9 10 11 12 13	58.2
2'F-ANA at 3 4 5 6 9 10	49.2
2'F-ANA at 1 3 5 7 8 9 11 12 13 14 15	52.1
2'F-ANA at 3 5 6 7 8 9 12 13 14 15	60.8
2'F-ANA at 1 3 4 5 6 7 9 10 13 14	46.8
2'F-ANA at 1 2 3 5 6 7 8 9 12 13	101
2'F-ANA at 1 3 4 5 9 12 13 15	70.8
2'F-ANA at 1 2 3 4 8 12 14 15	83.2
2'F-ANA at 3 4 7 10 13 14 15	218

Study 2
Target: RING finger protein unkempt homolog, zinc fingers 1-6, GST-SBP tag (UNK, Homo sapiens, UniProt Q9C0B0, residues 30-357)
Chain of UniProt Q9C0B0 (30-357, looked up): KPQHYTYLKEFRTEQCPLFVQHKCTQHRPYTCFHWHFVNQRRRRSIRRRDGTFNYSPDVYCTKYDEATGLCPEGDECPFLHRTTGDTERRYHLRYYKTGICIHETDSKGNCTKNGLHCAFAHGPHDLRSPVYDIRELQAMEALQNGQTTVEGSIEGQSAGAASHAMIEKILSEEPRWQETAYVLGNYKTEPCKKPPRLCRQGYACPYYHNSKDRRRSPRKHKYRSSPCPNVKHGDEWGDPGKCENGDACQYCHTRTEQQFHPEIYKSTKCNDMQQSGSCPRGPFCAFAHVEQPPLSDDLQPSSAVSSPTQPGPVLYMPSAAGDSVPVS
Technique: RNA Bind-n-Seq
Molecule type: RNA
Sample: in vitro
Concentration: not given
Setting: RNA with constant flanks, human-mouse chimeric sites, ends assumed
Baseline: input RNA pool
Reading: higher = stronger binding
Constant ends, left off below: GGGAGUUCUACAGUCCGACGAUC … CAACAGAGGAUUGAGCAUCA
Strand	bound/input enrichment [ratio]
UAUUUUUGACAGCCACAAAUUCUUGGCAUGUAUUAAGGAAAAAAAAAAUCCCUGUUGAAGUAGUUUUUCCACCUAUCAGCACUGAGUAAAUGCCAUAACUCCGCGGAAAUGGUCUAAAUA	0.243
UUACCCGAGAACGAGGAUGAGCUGGAGAGCACCAACAGGCGCUACACCAAGAGGGACUGCAGCACUUUCCUCAGAACUAGCGAGACGGGCAUCGUGGACCAGGUCAUGGUCACUCUCAAC	0.119
UUGGAAGGACCAGAGCCCAGUCAGCUCAAACCAUUAGUCAUACAGGCUAUGCCCACCCUAAUAGAACUAAUGAAAGACCCCAGUGUAGUUGUUCGAGACACAACAGCGUGGACUGUGGGC	0.408
GAUCUCGGGCCCUCCCCAGGGGCCUCCUUUCGUAUAGUCACUGCUUCUGCAUCAGAUACUUUCAGCUGCAACUCCCUACUGGGUGGGGCACCCAUUUCAGGCAGAAGGUUUUGGUACCCU	0.223
UCAGGAACCCAGACAAAUAUGAAUGUAAAUGAAGUCAUUAGCAACAGAGCAAUUGAAAUGUUAGGAGGUGAACUUGGCAGCAAGAAGCCUGUGCACCCCAAUGAUCAUGUUAACAAAAGC	0.524
UUCCCAACCUCCCGCCUCACCCCACCCAAGAAAGAAAGAAAGUUUUUGGCGUUUCUUUUCCUUCCCCAUACAAAGUGAUUACAGUUUCCCCCGCAAGGGUCUAUCGAAGGGCUUGACGGA	0.455
CUGGCACUCUAUCAGAUAUAUUAAUUUUUUAAUGUAGAUAAAAUUUCAAAAAUGAAUGGCUACUUUACACGUUUAACUAGGGUUUUACUAUAUAUGUGUACAUAUGUAUAUGUAUUUAUA	15.3
AAAGAGAAACUAAAGCAACUAAUAGAGAAGAGGAUUGGCAAAGAGAAUUUCAUAGAGGAAACUAGGAUUAUUAGCAAACAUGAGUUAGUAUUCCAGACGUCUCAGAAACCCCAGCCAAAC	1.64
CACAGAGGCACCACCCCCCCCUCCUCCUUUCCACACCUGCAAACUCUUUUACUUGGGCUGCAUAGUUAGUGUAAUUACAUCUCAGCUUUGAGGGCUCCUGUGGCAAAUUCCCGGAUUAAA	2.78
CACAGAGGAGAUCUGCUGUUCCUCACGAAUUUCCGGGAGGACCCCAUCAGAGCUGGUGAAAUAGUUGUUUUUAAGGUUGAAGGACGAGACAUUCCGAUAGUUCACAGAGUAAUCAAGGUU	3.51
AAAUCGUGUGUGUCAAAUAUUGAAAGUGCUUUAUCUACACUCCAGUAUGUAAGCAGUAUAGUAGUUUCUUUAGAGAAUAGGUCAGCCAUUGUAAAGUACAAUGCAAGCUUAGUCACUCCA	13.7

Study 3
Target: Histone acetyltransferase KAT6A, winged helix 1, GST fusion (KAT6A, Homo sapiens, UniProt Q92794, residues 1-85)
Technique: protein binding microarray
Molecule type: double-stranded DNA, one strand shown
Sample: in vitro
Concentration: not given
Setting: 8-mer, flanks averaged, mean of 2 arrays, mostly near background
Baseline: not given
Reading: higher = stronger binding
Construct (chain): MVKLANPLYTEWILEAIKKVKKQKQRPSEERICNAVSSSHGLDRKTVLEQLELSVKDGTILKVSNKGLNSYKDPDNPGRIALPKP
Strand	E-score
GTAGTTAA	-0.0438
GCGCAAAA	0.178
CAATTAAC	0.0409
GTGAGATA	0.0799
AACTTGCG	0.103
ATACGGTC	0.192
CACACTGC	0.0752
GGAACCAA	-0.0832
CTTCGTTC	-0.23
GCTTATCC	0.0183
CATAGAGA	-0.158
AGTGGGCG	-0.069
CATTCACC	0.00352
AACTATAG	-0.0901
ATTCTGGC	-0.0602
GATGTAGC	0.0375
CGGCAAAA	0.245
AAGAAGAA	-0.105

Study 4
Target: CCNF, cyclin fold, Cln2 fusion (human)
Technique: yeast growth competition, sequencing
Sample: yeast
Setting: weak parent motif
Baseline: not given
Reading: higher = stronger binding
Starting sequence: LLGL2 docking peptide (human); KSLKKSLRQSFRR
Change	normalised enrichment score
R13A	0.875
R8A	0.869
S2A	1.07
K4A	1.3
L3A	0.656
S6A	0.755
F11A	0.157

Study 5
Target: Sal-like protein 4, full length isoform A (SALL4, Homo sapiens, UniProt Q9UJQ4, residues 1-1053)
Chain of UniProt Q9UJQ4 (whole entry, looked up): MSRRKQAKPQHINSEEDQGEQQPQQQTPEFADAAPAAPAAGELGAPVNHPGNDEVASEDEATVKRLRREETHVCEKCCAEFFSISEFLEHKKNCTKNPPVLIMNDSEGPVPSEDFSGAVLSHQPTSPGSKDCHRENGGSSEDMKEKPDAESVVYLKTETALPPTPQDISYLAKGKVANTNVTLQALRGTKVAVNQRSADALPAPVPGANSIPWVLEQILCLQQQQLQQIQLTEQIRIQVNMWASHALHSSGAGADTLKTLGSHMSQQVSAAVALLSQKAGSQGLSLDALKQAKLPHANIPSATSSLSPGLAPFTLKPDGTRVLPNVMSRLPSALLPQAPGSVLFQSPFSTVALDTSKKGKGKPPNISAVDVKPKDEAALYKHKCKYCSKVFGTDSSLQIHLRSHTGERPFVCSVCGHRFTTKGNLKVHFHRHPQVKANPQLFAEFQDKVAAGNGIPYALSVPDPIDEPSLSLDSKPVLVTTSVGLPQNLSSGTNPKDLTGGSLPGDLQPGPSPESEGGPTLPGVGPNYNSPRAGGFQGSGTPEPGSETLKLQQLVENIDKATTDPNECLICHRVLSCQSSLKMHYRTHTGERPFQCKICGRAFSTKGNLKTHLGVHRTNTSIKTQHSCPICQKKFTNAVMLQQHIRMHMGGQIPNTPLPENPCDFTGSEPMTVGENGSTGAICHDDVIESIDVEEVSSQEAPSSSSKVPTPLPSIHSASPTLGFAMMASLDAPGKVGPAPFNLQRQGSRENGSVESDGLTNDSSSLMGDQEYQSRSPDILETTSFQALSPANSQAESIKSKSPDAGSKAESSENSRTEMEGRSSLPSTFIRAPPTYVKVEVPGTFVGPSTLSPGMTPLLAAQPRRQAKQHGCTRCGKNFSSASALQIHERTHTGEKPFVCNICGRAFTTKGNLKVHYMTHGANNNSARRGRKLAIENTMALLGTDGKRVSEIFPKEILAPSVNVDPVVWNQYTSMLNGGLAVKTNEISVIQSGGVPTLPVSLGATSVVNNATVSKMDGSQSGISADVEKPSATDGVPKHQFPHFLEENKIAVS
Technique: universal PBM
Molecule type: double-stranded DNA, one strand shown
Sample: in vitro
Concentration: 600 nM
Setting: 8-mer, flanks averaged, mean of replicates
Reading: higher = stronger binding
Strand	E-score
CAAGATCC	-0.0467
CAGACTGA	-0.1
AACTGGCT	-0.0756
ACCGCTAA	0.151
GGCAGGTA	-0.213
CTTGCACA	-0.0651
ATGATAAG	0.272
ACGTACGG	-0.203
CGGCTTTC	-0.235
CAAATCCC	-0.162
AGGGCCCT	-0.239
CGAATATC	0.19
AGCCACAG	-0.225
AAAGATAC	0.0641
AGTAACGG	0.0922
CTTTCCTC	-0.0157
AGTATGCC	-0.0607
GCTGATAA	0.172
CCAGTGCC	-0.263
AGAACAGG	-0.148
TCACGCCA	-0.109
CCGTCACG	-0.262
CCCTCTCA	-0.206
ATCTTAGG	-0.0671

Excerpt of the above (study 3):
Strand	E-score
AACTTGCG	0.103
ATACGGTC	0.192
CACACTGC	0.0752
GGAACCAA	-0.0832
CTTCGTTC	-0.23
GCTTATCC	0.0183
CATAGAGA	-0.158
AGTGGGCG	-0.069
CATTCACC	0.00352
AACTATAG	-0.0901
ATTCTGGC	-0.0602
